Measured values from different studies.
Parts stem from different laboratories: compare values within a part only. Positions count from the first letter of the parent shown.

Study 1 — technique: Sort-seq; measured: YFP reporter; matrix: E. coli; setting: PhoQ-PhoP variant library; together with: 10 µM Mg2+; relative to: high Mg2+ state; reading: higher = stronger signaling; quantity: fold induction
Molecule: PhoQ, residues 284 288 289 292 302 303 GLASVI
PhoP, residues 12 14 15 18 19 NFFVT (Escherichia coli, UniProt P23836): 8.44
PhoP, residues 12 14 15 18 19 TPWTL (Escherichia coli, UniProt P23836): 1.15
PhoP, residues 12 14 15 18 19 VGHWL (Escherichia coli, UniProt P23836): 1.47
PhoP, residues 12 14 15 18 19 LHHYF (Escherichia coli, UniProt P23836): 15.2

Study 2 — technique: RNA Bind-n-Seq; molecule type: RNA; matrix: in vitro; tested at: not given; relative to: input RNA pool; reading: higher = stronger binding; quantity: bound/input enrichment
Target: RING finger protein unkempt homolog, zinc fingers 1-6, GST-SBP tag (UNK, Homo sapiens, UniProt Q9C0B0, residues 30-357)
Setting: RNA with constant flanks, human and mouse sites, ends assumed
All sequences stand within: GGGAGUUCUACAGUCCGACGAUC … CAACAGAGGAUUGAGCAUCA
Residues (chain): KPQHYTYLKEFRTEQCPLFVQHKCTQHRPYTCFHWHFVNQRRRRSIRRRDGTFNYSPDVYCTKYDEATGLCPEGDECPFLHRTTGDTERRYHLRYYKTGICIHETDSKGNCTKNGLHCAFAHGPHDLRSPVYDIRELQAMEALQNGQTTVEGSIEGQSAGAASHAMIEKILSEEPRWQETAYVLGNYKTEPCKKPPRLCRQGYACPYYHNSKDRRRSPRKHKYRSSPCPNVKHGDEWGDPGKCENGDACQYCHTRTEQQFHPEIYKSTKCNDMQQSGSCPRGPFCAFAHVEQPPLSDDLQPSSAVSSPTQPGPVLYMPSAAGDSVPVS
CAGCUCACAACUUCCAUAGGAUCCAGUGACAUGCAUGUAACACCCCACCCCCAACACACACACACACAUAACUAUAAAUGACAGAGGAGAUCUUAAAGUACUAGUUAUAUACCAGAGCUC: 1.06 ratio
AACCCCGUGCUUCAGAUAUUACAGGAUACACAAAUACUGAAGCAACUUAGAUAAUUGAAGAAAAUACAUCUGCCUUCAAAUAGAGUGCUUAGAGUUAGAUUUGUGAUCAGUGUCUUCUAG: 21.5 ratio
UUAAUGUCUGCCAGAACACAAUUUAUAUGCCUUAUUGGCUUCAUUAAACUUUUAGAAAACUUUAGCAUUUGUUACUUUUUUCCAUUGCGUUUACUUUCAAAUGCACCUAAUGAAUUUGUC: 6.32 ratio
AAGUCAAUGCAGUCCCACUUACUCAAGCUGCAGCUGAAAGGCUAUCCCAGUACGUGUUGGUAGUUCCUGAGAGAGUUAUAGCUGGUGUUGCCUUGUGGUCUACCCCUUGUUUCAGGCCUC: 0.104 ratio
AACACUAGACAAAAAAAAAUCAACUGUAUUUGUAAAAAUUUACCUCAAACCAUUUAAUUUUAUAGUGUGAUUGGUUAAUCCCAGGGCAUUUGGUAUGAACCAAAGUGCAUUCCUUUUUUU: 1.05 ratio
CACGCGUCCAUCCAGAUGAACGUGGCCGAGGUUGAUAGGACCACAGGCCGGUUUAAUGGCCAGUUUAAAACCUAUGGCAUCUGCGGGGCCAUUCGCAGGAUGGGCGAGUCAGAUGAUUCU: 0.0477 ratio
GAAUUAUUUCCCAAGUUACAAGCAAAUAUCUCAACUGGUGUCUCCAAGAUUCGACUUUUGACAAUAAGGAUACUAAAUCAUUUUGACAUCCGGCUUCCAGUUUCAAUGGAGGAUGAUGGG: 0.174 ratio
GUGCCCUUCUCGCUGCUGCGGAGCCCGAGCUGGGAACCAUUCCGGGACUGGUACCCUGCACACAGCCGCCUCUUCGAUCAAGCUUUCGGGGUGCCCCGGUUGCCCGAUGAGUGGUCGCAG: 0.0611 ratio
GAGAAGCGCGCUUCAGGCCAGGCUUUUGAGCUGAUUCUCAGCCCUCGGUCAAAAGAAUCUGUCCCCGAUUUCCCCCUUUCCCCCCCAAAGAAGAAGGACCUUUCCCUGGAGGAAAUCCAG: 0.386 ratio
GCAUCCUGUGAAAAUACUCUUAAUACAUUAAGAUAUGCAAAUAGAGUAAAGGAGUUUGGAAUUAGUCCAUCAGACAUUCCCUUCUCACAGGGUAGUGGCAGUCGCCCUGAUCUCUCUCCU: 0.128 ratio
GCUUGCUUGAACGGGUCUCCUCAGCGGCGGCUGGAGUCGAAUUUGGAAAUACUGCACAUCUAGUUGGCUCCAAAUUGUAAACCACAGGAUGAGUAUUCAGUGGGCAUGAGAGAUUGAGAA: 0.207 ratio

Study 3 — technique: DHFR PCA, deep sequencing; matrix: yeast; together with: (+)-ABA 200 µM; relative to: wild-type fitted maximum; reading: higher = stronger binding; quantity: relative binding score
Target: ABI1, truncated, D143A, DHFR fusion (Arabidopsis thaliana)
Setting: methotrexate growth selection, single substitutions
Starting sequence: PYL1, truncated, DHFR fusion (Arabidopsis thaliana); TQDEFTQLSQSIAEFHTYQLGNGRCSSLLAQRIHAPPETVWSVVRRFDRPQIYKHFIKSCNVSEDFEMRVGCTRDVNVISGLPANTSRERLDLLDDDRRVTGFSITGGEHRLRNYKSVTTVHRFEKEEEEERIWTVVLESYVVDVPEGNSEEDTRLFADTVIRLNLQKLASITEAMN
Q19C: 94.7%
L82T: 52%
E109Q: 101%
Y115T: 1.41%
I105L: 34.6%
G108P: 19.1%
A35Q: 57.1%
I12R: 76.6%
R49P: -9.01%
S59P: 1.29%
Q167M: 96.7%
Y141K: -5.25%
D95I: 78.8%
H122E: 77.2%
K58P: 12%
V70I: 99.5%
S26W: 89.4%
I105G: 4.75%
D153V: 9.48%
C60R: 13.8%
G107L: 30.9%
T1F: 99.8%
L29R: 78.4%
T106S: 82.2%
L169I: 36.1%

Study 4 — technique: protein binding microarray; molecule type: double-stranded DNA, one strand shown; matrix: in vitro; tested at: not given; relative to: not given; reading: higher = stronger binding; quantity: E-score
Target: Histone acetyltransferase KAT6A, both winged helices, GST fusion (KAT6A, Homo sapiens, UniProt Q92794, residues 1-181)
Setting: 8-mer, flanks averaged, mean of 2 arrays, mostly near background
Construct (chain): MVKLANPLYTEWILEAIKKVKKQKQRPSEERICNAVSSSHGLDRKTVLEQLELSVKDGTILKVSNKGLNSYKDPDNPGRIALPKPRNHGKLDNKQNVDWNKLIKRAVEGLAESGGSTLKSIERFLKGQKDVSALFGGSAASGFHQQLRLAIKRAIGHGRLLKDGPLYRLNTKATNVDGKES
ACACCAAC: -0.0606
CCCTTGGC: -0.129
ACCCGTAC: 0.235
AGCGCGAT: 0.246
GCATCGAA: 0.00234
TCTCCCAA: -0.114
CCCAGGCC: -0.0656
ACTGACTA: -0.154
TCTACCAA: -0.142
GAAATCTA: -0.0414
CTGACGTC: -0.0451
ACAAGGCT: -0.0261
CCAAGTGG: -0.132
GAGGCCAA: -0.217
GTTCTTCA: -0.0222
AAGCTAGA: -0.217
CAAGTTGG: -0.16
AAAATAGC: -0.0085
ACACTCGC: 0.0665
CGATGTTA: -0.0679
ACCAGCTC: -0.16
ACTAAAAA: 0.0111

Study 5 — technique: competition protein-binding microarray; molecule type: double-stranded DNA, one strand shown; matrix: in vitro; tested at: 2 µM; together with: Pho4 competitor, 0.05 µM; reading: higher = stronger binding; quantity: fluorescence intensity; all sequences stand within: … GTCTTGATTCGCTTGACGCTGCTG
Target: Centromere-binding protein 1, full length, His-tagged (CBF1, Saccharomyces cerevisiae, UniProt P17106, residues 1-351)
Sequence of UniProt P17106 (whole entry, looked up): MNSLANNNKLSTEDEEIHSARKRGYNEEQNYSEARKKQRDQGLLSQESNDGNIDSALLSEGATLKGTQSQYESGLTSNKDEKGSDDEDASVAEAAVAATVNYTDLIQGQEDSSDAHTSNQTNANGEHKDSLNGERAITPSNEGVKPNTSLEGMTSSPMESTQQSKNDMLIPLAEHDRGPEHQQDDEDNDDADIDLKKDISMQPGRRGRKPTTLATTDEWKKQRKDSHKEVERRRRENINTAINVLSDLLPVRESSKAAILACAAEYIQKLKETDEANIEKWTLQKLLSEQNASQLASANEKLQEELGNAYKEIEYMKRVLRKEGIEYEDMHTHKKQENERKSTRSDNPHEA
Setting: whole 60-bp probe, lowest competitor level
GAAAATGCTAATGCCCATGTGCGACTCATTCCGTTA: 75 a.u.
GATTGTGGAAAGAAGCATGTGGTTTTCAAAAATTGG: 183 a.u.
AGCAACCTTCTTGGCACCGTGCTTTTTGGCGACCTT: 52.9 a.u.
CGGGGTTAAGTTTGATCGGTGGGTGGCTTGCAGCAG: 80 a.u.
TGGCCCTTTGTTGGGCATGTGCTGCAAGAAAACTGG: 189 a.u.
CATACCCAACCTTGTCACACAACTTAAGATATTTGT: 91.2 a.u.
CGGGGTTAAGTTTGGCCAGTGGGTGGCTTGCAGCAG: 59.3 a.u.
TTCTTCCAATCGAGTCACGTCGCGTCCTCGGAGGCA: 124 a.u.
AAATTACTAAGTTGGCTTGTGGGTGACGCCGTATGA: 73.3 a.u.
GTCTTGTCTCATTGTTGGGTGGGTGTCCCCACTTCA: 97.7 a.u.
ACAACTCCCAGCAGCCACGAGGAGCCCTAGGGCTTG: 61 a.u.
AAGGCGTCTTGTCACCACGTCTTCCAGTTATGGTCT: 61.5 a.u.
TAGGTTTTATCCTGGCACGCTGTCTAGCTTTCAAAC: 78 a.u.
GATATTGTACGTATTCACGTGTGAATTGCTAAAGAG: 884 a.u.
ATGTACAGTGGTACCCTCGTGTTTTCTGCAGCGAGA: 106 a.u.
TTTTCTGATTGCCAGCCCGTGCGGATTAGGGATTTC: 79.7 a.u.
TGCCGTCGATGAGGACACGTTCAGATATGCCAAACA: 73.7 a.u.
CAAGCATAGCGTATACACGTGCAAACACAAGCATAC: 1310 a.u.
AAGAAATGAGGCCGTCACAGATGTTAAGAATTGAAG: 71.8 a.u.

Study 6 — target: CCNF, cyclin fold, Cln2 fusion (human); technique: yeast growth competition, sequencing; matrix: yeast; setting: strong parent motif; relative to: not given; reading: higher = stronger binding; quantity: normalised enrichment score
Starting sequence: WEE1 docking peptide (human); HKTFRKLRLFDTP
D11N: 2.14
K2F: 2.31
R5D: 0.828
K6A: 2.27
K6L: 2.47
H1M: 1.85
K6M: 1.5
K2D: 1.87
T3R: 1.65
H1E: 1.8
K6R: 3.16
L9F: 5.27
T3P: 2.04
L7M: 1.06
H1P: 2.39
F10L: 0.846
H1I: 3.15
D11K: 2.56

Repeated from above (study 4):
ACACCAAC: -0.0606
CCCTTGGC: -0.129
ACCCGTAC: 0.235
AGCGCGAT: 0.246
GCATCGAA: 0.00234
TCTCCCAA: -0.114
CCCAGGCC: -0.0656
ACTGACTA: -0.154
TCTACCAA: -0.142
GAAATCTA: -0.0414
CTGACGTC: -0.0451
ACAAGGCT: -0.0261
CCAAGTGG: -0.132
GAGGCCAA: -0.217
GTTCTTCA: -0.0222
AAGCTAGA: -0.217
